Assay results gathered from unrelated publications.
Compare with care: the assays were run in different laboratories. “And” joins repeats or separate records; there may be more than shown. ± gives the spread as reported.

SMILES	target or system	assay	test system	setting	how to read	quantity	result
COc1ccccc1-c1n[nH]c2nc(NC3CCN(C(=O)Cc4ccc(F)cc4F)CC3)ncc12	MPK5 LINJ.30.2930	bead competition pull-down	Leishmania donovani extract	10 µM	relative to: vehicle	relative captured amount	0.76
CC[C@H](C)[C@@H]1NC(=O)CNC(=O)[C@H](CC(=O)O)NC(=O)[C@H](CC(=O)O)NC(=O)[C@@H]2CSSC[C@@H]3NC(=O)[C@H](Cc4c[nH]cn4)NC(=O)[C@H](CCCNC(=N)N)NC(=O)[C@H](CCCNC(=N)N)NC(=O)[C@@H](NC(=O)[C@H](CO)NC(=O)[C@@H](N)Cc4c[nH]cn4)CSSC[C@H](NC(=O)[C@H](C)NC(=O)[C@H](Cc4c[nH]c5ccccc45)NC(=O)CNC(=O)[C@H](CSSC[C@@H](C(=O)N[C@@H](CCCCN)C(=O)N4CCC[C@H]4C(=O)N[C@@H](CC(C)C)C(=O)N[C@@H](CCCNC(=N)N)C(=O)N[C@H](C(=O)O)C(C)C)NC1=O)NC(=O)[C@H](CCCNC(=N)N)NC(=O)[C@H](CCCNC(=N)N)NC(=O)[C@H](CC(N)=O)NC(=O)[C@H](CCC(=O)O)NC(=O)[C@H](Cc1c[nH]cn1)NC3=O)C(=O)N[C@@H](Cc1ccc(O)cc1)C(=O)N2	hKv1.4 human			concentration not given		ion current	no effect
O=P(O)(O)Oc1c2c(c(OP(=O)(O)O)c3c1C1CC3c3cc4ccccc4cc31)C1CC2c2cc3ccccc3cc21	sphingomyelin	1H NMR titration	methanol-d4	CH2-N(Me)3 signal		association constant	144 ± 7 M⁻¹
CSCC[C@H](NC(=O)[C@@H](N)CSC1CC(=O)N(CCNC(=O)COc2ccc(/C=C/C3=[N+]4C(=Cc5ccc(-c6cccs6)n5[B-]4(F)F)C=C3)cc2)C1=O)C(=O)N[C@@H](CCC(=O)O)C(=O)N[C@@H](Cc1ccccc1)C(=O)N[C@H](C(=O)N[C@@H](C)C(=O)N[C@@H](CCCCN)C(=O)N[C@@H](CC(C)C)C(=O)N[C@@H](Cc1ccccc1)C(=O)N[C@@H](CCCCN)C(=O)N[C@@H](Cc1ccccc1)C(=O)N[C@@H](Cc1ccccc1)C(=O)N[C@@H](CCCCN)C(=O)N[C@@H](CC(=O)O)C(=O)N[C@@H](CC(C)C)C(=O)N[C@@H](CC(C)C)C(=O)NCC(=O)N[C@@H](CCCCN)C(=O)N[C@@H](Cc1ccccc1)C(=O)N[C@@H](CC(C)C)C(=O)NCC(=O)N[C@@H](CC(N)=O)C(=O)N[C@@H](CC(N)=O)C(=O)O)C(C)C (some centres unmarked)	alpha-synuclein oligomers			2 µM, 30 min, emission 735 nm		fluorescence excitation increase	1.8 fold
O=C1NC2(CC2)COc2ncc(F)cc2[C@H]2COCCN2c2ccn3ncc1c3n2			Sprague-Dawley rat, male, blood	oral, 10 mg/kg/day, 4 weeks, end of treatment, subacute toxicity		haematocrit	44.2 ± 3.8%
COc1ccccc1-c1n[nH]c2nc(N[C@H]3CC[C@H](NS(=O)(=O)CC(C)C)CC3)ncc12	Leishmania CKS1 LINJ.32.3940	bead competition pull-down	Leishmania donovani extract	10 µM	relative to: vehicle	relative captured amount	0.39
Cc1cc(C(=O)Nc2nc3cccc(C)c3n2[C@H]2CCCCN(C(=O)/C=C/CN(C)C)C2)ccn1	Trypanosoma brucei CLK1 C215A	thermal stability, differential scanning fluorimetry			relative to: DMSO	ΔTm	1.17 °C and 1.26 °C and 1.22 °C
O=C(N[C@@H]1c2ccccc2C[C@H]1N1CCCC1)c1ccc(-c2ccnc3[nH]ccc23)nc1	ROCK1/2	MYPT1 phosphorylation, inhibitor, western blot				IC50	303 nM
CC[C@H](C)[C@@H]1NC(=O)[C@H](Cc2ccc(O)cc2)NC(=O)[C@@H](N)CSSC[C@@H](C(=O)N2CCC[C@H]2C(=O)N2CCC[C@H]2C(=O)NCC(N)=O)NC(=O)[C@H](CC(N)=O)NC(=O)[C@H](CCC(N)=O)NC1=O	oxytocin receptor (titi monkey)	membrane hyperpolarisation	CHO cells	added: pertussis toxin 150 ng/mL pretreatment 24 h		IC50	0.48 nM
CC(C)NCCCn1c(Sc2cc3c(cc2I)OCO3)nc2c(N)ncnc21	epichaperome	PU-PET	human, tumour			tumour residence half-time	24 to 100 h
COc1ccc(NC(=O)c2ccc3[nH]c(-c4ccc(N(C)C)cc4)nc3c2)cn1	endogenous ERK-MYD88 complex	proximity ligation	HCT-116	concentration not given, unit not given	relative to: DMSO	ERK-MYD88 interaction	0.623 and 0.61 and 0.175

For quick reference, copied from above:
SMILES	target or system	assay	test system	setting	how to read	quantity	result
CC[C@H](C)[C@@H]1NC(=O)CNC(=O)[C@H](CC(=O)O)NC(=O)[C@H](CC(=O)O)NC(=O)[C@@H]2CSSC[C@@H]3NC(=O)[C@H](Cc4c[nH]cn4)NC(=O)[C@H](CCCNC(=N)N)NC(=O)[C@H](CCCNC(=N)N)NC(=O)[C@@H](NC(=O)[C@H](CO)NC(=O)[C@@H](N)Cc4c[nH]cn4)CSSC[C@H](NC(=O)[C@H](C)NC(=O)[C@H](Cc4c[nH]c5ccccc45)NC(=O)CNC(=O)[C@H](CSSC[C@@H](C(=O)N[C@@H](CCCCN)C(=O)N4CCC[C@H]4C(=O)N[C@@H](CC(C)C)C(=O)N[C@@H](CCCNC(=N)N)C(=O)N[C@H](C(=O)O)C(C)C)NC1=O)NC(=O)[C@H](CCCNC(=N)N)NC(=O)[C@H](CCCNC(=N)N)NC(=O)[C@H](CC(N)=O)NC(=O)[C@H](CCC(=O)O)NC(=O)[C@H](Cc1c[nH]cn1)NC3=O)C(=O)N[C@@H](Cc1ccc(O)cc1)C(=O)N2	hKv1.4 human			concentration not given		ion current	no effect
